Measurements gathered from unrelated publications.
Each line is one published result; not all experiments were run side by side. Several values in a cell are separate wells, animals, samples, runs or records. ± gives the spread as reported.
Abcb1a: ATP-dependent translocase ABCB1 (Abcb1a, Mus musculus, UniProt P21447)
Chain of UniProt P21447 (whole entry, looked up): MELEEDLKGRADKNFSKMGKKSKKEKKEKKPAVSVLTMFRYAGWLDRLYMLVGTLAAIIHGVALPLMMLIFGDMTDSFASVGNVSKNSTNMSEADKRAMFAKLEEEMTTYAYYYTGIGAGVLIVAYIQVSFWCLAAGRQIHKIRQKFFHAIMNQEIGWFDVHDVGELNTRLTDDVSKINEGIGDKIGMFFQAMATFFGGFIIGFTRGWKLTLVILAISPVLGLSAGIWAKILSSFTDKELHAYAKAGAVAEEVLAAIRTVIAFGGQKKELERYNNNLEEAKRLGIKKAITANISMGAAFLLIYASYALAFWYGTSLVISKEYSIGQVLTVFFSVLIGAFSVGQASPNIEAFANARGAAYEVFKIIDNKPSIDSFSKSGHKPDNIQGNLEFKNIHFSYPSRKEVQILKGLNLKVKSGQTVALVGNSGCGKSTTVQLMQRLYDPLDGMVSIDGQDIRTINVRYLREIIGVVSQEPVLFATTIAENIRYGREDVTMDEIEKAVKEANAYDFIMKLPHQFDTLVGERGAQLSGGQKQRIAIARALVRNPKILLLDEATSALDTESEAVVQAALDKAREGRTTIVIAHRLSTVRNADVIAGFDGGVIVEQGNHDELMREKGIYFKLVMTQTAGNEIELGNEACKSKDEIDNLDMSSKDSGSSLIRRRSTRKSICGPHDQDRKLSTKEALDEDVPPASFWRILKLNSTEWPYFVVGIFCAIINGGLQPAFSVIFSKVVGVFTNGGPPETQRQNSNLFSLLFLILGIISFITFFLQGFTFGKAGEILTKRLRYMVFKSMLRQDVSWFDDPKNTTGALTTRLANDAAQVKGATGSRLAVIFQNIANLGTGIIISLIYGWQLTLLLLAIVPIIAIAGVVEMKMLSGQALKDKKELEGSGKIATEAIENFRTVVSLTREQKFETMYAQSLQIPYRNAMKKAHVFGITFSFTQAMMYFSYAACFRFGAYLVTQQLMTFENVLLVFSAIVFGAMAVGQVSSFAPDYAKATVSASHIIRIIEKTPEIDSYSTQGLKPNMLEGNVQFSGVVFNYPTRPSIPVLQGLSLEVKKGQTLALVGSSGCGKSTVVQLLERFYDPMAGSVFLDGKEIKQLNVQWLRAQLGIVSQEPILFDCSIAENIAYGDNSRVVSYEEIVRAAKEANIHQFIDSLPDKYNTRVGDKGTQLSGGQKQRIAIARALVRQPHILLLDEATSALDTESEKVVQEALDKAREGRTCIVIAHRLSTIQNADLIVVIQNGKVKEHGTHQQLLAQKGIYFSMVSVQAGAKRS
CYP1A2: Cytochrome P450 1A2 (CYP1A2, Homo sapiens, UniProt P05177)
Chain of UniProt P05177 (whole entry, looked up): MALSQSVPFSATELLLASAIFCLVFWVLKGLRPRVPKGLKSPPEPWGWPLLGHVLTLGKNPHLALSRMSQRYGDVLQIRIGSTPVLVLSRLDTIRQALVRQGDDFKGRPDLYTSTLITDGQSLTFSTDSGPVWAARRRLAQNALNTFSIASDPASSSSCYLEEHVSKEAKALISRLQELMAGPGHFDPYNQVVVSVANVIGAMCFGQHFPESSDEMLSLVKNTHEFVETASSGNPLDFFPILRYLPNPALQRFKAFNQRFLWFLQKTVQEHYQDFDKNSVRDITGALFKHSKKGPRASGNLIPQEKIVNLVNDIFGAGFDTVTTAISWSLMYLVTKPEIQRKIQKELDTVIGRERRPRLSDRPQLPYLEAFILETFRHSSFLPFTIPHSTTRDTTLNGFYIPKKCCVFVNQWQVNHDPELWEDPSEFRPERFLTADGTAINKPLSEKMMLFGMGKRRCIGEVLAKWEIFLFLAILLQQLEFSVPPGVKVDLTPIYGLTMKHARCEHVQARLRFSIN
Chain of UniProt P08684 (whole entry, unmodified, looked up): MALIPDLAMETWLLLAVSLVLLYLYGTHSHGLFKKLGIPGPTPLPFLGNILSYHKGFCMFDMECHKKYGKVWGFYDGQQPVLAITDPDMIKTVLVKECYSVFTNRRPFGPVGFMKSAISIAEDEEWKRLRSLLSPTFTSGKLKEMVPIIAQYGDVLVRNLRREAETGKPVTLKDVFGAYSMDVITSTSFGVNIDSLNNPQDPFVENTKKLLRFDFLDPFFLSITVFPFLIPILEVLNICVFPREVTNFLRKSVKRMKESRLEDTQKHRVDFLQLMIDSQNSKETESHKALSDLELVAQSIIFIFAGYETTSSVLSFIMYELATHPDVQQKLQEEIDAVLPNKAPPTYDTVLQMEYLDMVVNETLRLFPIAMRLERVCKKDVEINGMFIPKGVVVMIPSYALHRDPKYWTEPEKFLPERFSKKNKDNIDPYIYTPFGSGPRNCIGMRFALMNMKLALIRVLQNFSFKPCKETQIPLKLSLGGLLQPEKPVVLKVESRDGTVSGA
Chain of UniProt P05181 (whole entry, looked up): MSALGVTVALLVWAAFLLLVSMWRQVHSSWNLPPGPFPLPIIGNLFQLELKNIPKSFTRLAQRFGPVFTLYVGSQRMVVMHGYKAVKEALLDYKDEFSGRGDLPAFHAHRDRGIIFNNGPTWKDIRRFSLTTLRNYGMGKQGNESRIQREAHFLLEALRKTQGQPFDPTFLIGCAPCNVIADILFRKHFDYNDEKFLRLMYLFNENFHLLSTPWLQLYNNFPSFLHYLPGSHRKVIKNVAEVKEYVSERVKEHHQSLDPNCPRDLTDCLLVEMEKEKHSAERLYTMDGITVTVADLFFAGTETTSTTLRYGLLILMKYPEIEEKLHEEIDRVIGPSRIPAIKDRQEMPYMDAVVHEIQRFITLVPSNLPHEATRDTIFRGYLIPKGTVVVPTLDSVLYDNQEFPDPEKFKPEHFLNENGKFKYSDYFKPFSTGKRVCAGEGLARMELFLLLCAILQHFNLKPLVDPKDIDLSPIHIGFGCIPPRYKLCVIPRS
Chain of UniProt O00519 (whole entry, looked up): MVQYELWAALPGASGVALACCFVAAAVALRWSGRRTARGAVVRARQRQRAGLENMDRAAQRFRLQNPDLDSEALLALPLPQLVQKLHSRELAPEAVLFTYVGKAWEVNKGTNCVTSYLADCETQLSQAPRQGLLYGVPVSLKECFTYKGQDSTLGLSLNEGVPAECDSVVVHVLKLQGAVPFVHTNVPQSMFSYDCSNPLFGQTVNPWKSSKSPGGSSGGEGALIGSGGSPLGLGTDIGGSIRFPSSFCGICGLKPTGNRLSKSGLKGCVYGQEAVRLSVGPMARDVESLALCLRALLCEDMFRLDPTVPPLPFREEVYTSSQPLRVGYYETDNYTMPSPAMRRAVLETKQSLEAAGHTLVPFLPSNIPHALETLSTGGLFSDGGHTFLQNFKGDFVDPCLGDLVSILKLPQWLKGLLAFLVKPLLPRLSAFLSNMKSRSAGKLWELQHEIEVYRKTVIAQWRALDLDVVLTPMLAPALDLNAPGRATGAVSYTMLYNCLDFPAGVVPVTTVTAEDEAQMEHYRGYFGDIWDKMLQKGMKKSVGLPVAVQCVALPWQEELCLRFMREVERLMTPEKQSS
Chain of UniProt Q3UFF7 (whole entry, looked up): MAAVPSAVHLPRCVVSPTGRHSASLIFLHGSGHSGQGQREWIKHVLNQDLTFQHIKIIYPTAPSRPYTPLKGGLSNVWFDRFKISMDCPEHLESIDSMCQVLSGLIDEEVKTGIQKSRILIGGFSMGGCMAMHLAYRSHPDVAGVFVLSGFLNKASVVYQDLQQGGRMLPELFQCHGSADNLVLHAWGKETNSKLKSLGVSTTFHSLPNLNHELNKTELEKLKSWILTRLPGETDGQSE
Chain of UniProt P34913 (whole entry, looked up): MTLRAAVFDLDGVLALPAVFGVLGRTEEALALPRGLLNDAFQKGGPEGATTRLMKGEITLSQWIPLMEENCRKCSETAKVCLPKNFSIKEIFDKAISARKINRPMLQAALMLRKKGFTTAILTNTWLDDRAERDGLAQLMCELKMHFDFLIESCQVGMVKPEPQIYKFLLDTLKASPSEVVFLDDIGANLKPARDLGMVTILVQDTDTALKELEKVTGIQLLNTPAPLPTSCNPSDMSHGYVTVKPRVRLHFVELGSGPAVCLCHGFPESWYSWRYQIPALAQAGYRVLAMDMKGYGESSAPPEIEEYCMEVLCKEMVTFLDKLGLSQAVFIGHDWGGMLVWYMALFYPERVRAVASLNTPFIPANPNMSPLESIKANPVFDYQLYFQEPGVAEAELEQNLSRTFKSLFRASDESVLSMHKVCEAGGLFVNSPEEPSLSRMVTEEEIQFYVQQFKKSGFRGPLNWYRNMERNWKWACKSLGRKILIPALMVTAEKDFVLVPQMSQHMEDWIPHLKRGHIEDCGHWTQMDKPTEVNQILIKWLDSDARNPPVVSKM
Chain of UniProt P00761 (whole entry, looked up): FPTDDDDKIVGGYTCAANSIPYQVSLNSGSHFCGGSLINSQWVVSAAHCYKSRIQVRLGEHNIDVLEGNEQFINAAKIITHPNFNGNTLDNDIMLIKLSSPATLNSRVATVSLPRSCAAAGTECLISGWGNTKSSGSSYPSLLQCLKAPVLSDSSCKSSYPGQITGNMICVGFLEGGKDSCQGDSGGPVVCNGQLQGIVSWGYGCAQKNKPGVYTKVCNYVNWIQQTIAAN
Chain of UniProt P43235 (whole entry, looked up): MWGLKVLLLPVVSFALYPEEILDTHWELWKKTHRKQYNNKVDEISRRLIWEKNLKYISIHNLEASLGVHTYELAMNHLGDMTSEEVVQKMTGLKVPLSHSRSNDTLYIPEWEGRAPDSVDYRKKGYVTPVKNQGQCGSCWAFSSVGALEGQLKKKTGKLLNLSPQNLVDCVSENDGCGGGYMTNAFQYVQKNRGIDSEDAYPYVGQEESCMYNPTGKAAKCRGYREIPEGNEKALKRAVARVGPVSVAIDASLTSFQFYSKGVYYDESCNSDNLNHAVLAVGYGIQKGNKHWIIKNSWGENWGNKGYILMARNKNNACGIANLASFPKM

[64Cu+2].c1cnc(CNCc2ccc(CN3CCCN4CCNCCCN(CC4)CC3)cc2)nc1 — tissue uptake (CXCR4; NOD/SCID mouse, U87 and U87-stb-CXCR4 xenografts, muscle; iv, 60 min, ex vivo): 0.4 ± 0.01 %ID/g
C[C@]12CC[C@@H]3c4ccc(OCC(=O)N[C@@H](CCCCNC(=O)CN5CCN(CC(=O)[O-])CCN(CC(=O)[O-])CCN(CC(=O)[O-])CC5)C(=O)O)cc4CC[C@H]3[C@@H]1CCC2=O.[68Ga+3] — radioactivity uptake (estrogen receptor; nude mice, MCF7 xenograft, uterus; dose not given, 2.5 h post-injection, no blocking dose): 1.3 ± 0.22 %ID/g
COc1cc2c(cc1OC)CN(CCCCn1ccc3cc(OCC[18F])ccc31)C2 — increase in brain/blood ratio (Abcb1a; ICR mice, male; intravenous, dose not given, 2 min, with: cyclosporine A 50 mg/kg iv, 60 min before; reference: no cyclosporine A): 50%
O=C(Nc1ccccc1)c1ccc(Nc2nnc(-c3ccc(O)cc3)c3ccccc23)cc1 — hydrolysis (FAAH (Homo sapiens, UniProt O00519); substrate; concentration not given, 24 h, 37 °C): ~5%
CC(C)C[C@H](NC(=O)[C@H](CC(N)=O)NC(=O)[C@H](CCCNC(=N)N)NC(=O)[C@@H](CC(C)C)NC(=O)[C@H](Cc1ccc(-c2ccccc2)cc1)NC(=O)[C@H](CC(=O)O)NC(=O)[C@H](CCCCN)NC(=O)[C@@H](CC(C)C)NC(=O)[C@H](CCCNC(=N)N)NC(=O)[C@H](CCC(N)=O)NC(=O)[C@@H](NC(=O)[C@@H](CC(C)C)NC(=O)[C@H](CCCNC(=N)N)NC(=O)[C@H](CCCCN)NC(=O)[C@H](Cc1ccc(-c2ccccc2)cc1)NC(=O)CN)C(C)C)C(=O)N[C@H](C(N)=O)C(C)C — stability time (Proteinase K (PROK, Engyodontium album, UniProt P06873); substrate, tricine SDS-PAGE; pH 8, 37 °C, with: peptide:protease 40:1): ≥ 24 h
O=C(CS(=O)(=O)Cc1ccco1)C12CC3CC(CC(C3)C1)C2 — inhibition (CYP1A2; inhibitor; 10 µM): no inhibition
CC(C)C[C@H](NC(=O)[C@@H]1CCCN1)C(=O)N[C@@H](CO)C(=O)N[C@@H](CC(C)C)C(=O)N[C@@H](CCCNC(=N)N)C(=O)N[C@@H](CO)C(=O)N[C@@H](CCCCN)C(=O)O — remaining substrate (MMP-9; substrate, HPLC; 500 µM, 72 h, pH 7.5, 37 °C, with: 10 U MMP-9): 5%
Cc1nc2ccc(S(=O)(=O)n3nc(SCc4ccc(Cl)cc4)nc3N)cc2s1 — activity-based probe labelling (Lysophospholipase-like protein 1 (Mus musculus, UniProt Q3UFF7); gel-based ABPP; C57BL/6J mouse, male, liver; intraperitoneal, 100 mg/kg, 25 min, with: LYPLAL1 alkyne probe 5 mg/kg; reference: vehicle): 2 fold
NCCCC[C@H](NC(=O)[C@H](Cc1ccc(O)cc1)NC(=O)[C@H](CCCCN)NC(=O)[C@H](Cc1c[nH]c2ccccc12)NC(=O)[C@H](Cc1ccccc1)NC(=O)[C@H](Cc1ccccc1)NC(=O)Cc1ccc(-c2ccccc2)cc1)C(=O)NCC(=O)N[C@@H](Cc1c[nH]cn1)C(=O)N1CCC[C@H]1C(=O)NCC(=O)NCC(=O)N1CCC[C@H]1C(=O)N[C@@H](CCC(N)=O)C(=O)N[C@@H](CC(=O)O)C(=O)N[C@@H](CC(=O)O)C(=O)N[C@@H](CC(=O)O)C(=O)N[C@@H](CC(=O)O)C(=O)N[C@@H](CC(=O)O)C(=O)N[C@@H](CC(=O)O)C(=O)O — zeta potential (Cathepsin K (CTSK, Homo sapiens, UniProt P43235); Zetasizer; MES buffer; 64 µM, pH 5.5, with enzyme, after cleavage, with: CTSK 800 ng/mL): 19.6 mV
CC(C)C[C@H](NC(=O)CNC(=O)[C@H](CC(C)C)NC(=O)[C@@H]1CCCN1)C(=O)N[C@@H](CCCNC(=N)N)C(=O)N[C@@H](CO)C(=O)N[C@@H](CCCCN)C(=O)O — remaining substrate (MMP-9; substrate, HPLC; 500 µM, 72 h, pH 7.5, 37 °C, with: 10 U MMP-9): 6%
CC[C@H](C)[C@@H]1NC(=O)[C@H](Cc2c[nH]c3ccccc23)NC(=O)[C@H](CCCN)NC(=O)CNC(=O)[C@H]2CCCN2C(=O)[C@H](C(C)C)NC(=O)[C@H](CCCCN)NC(=O)[C@H](C(C)C)NC(=O)[C@H](Cc2c[nH]c3ccccc23)NC(=O)[C@H](CCCNC(=N)N)NC(=O)[C@@H](NC(C)=O)CCCCn2cc(nn2)C[C@@H](C(N)=O)NC(=O)[C@H](CCC(N)=O)NC(=O)[C@H](CCCCN)NC1=O — half-life ratio (Pronase E (Streptomyces griseus); substrate; pH 7.6, 37 °C; reference: cyclic over non-cyclic peptide): ≥ 5 fold
[64Cu+2].c1ccc(CNCc2ccc(CN3CCCN4CCNCCCN(CC4)CC3)cc2)nc1 — tissue uptake (CXCR4; NOD/SCID mouse, U87 and U87-stb-CXCR4 xenografts, muscle; iv, 90 min, ex vivo, with: AMD3465 25 mg/kg sc before tracer): 0.32 ± 0.02 %ID/g
Cn1cnc(C(=O)N(Cc2ccc(F)c(OC3CCCC3)c2)C2CC3CN([11CH3])CC3C2)c1 (stereo not shown) — brain uptake increase (Abcb1a; mouse; with: cyclosporin A 50 mg/kg i.v.; reference: no cyclosporin A): 12 fold
COc1cc(-c2nc3ccccc3s2)cc(CN(Cc2ccccn2)Cc2ccccn2)c1O — pZn (Zn2+; 50 µM, pH 7.4, metal to ligand 1:1): 8
O=C(Nc1ccc(C(F)(F)F)nc1)N1CCC(Cc2cccc(Oc3ccc(C(F)(F)F)cn3)c2)CC1 — dissociation half-life (EPHX2 (Homo sapiens, UniProt P34913); FRET displacement): 2 min
CC(C)C[C@H](NC(=O)[C@H](CO)NC(=O)[C@H](CC(C)C)NC(=O)[C@@H]1CCCN1C(=O)CNC(=O)[C@H](Cc1ccccc1)NC(=O)[C@H](Cc1ccccc1)NC(=O)OCC1c2ccccc2-c2ccccc21)C(=O)N[C@@H](CCCNC(=N)N)C(=O)N[C@@H](CO)C(=O)N[C@@H](CCCCN)C(=O)O — remaining substrate (MMP-9; substrate, HPLC; 500 µM, 72 h, pH 7.5, 37 °C, with: 10 U MMP-9): 91%
O=C(O)c1cc(Br)c(O)c(Br)c1 — Ki (Cytochrome P450 2E1 (CYP2E1, Homo sapiens, UniProt P05181); p-nitrophenol hydroxylation, noncompetitive inhibitor, calculated from IC50; baculosomes): 1 µM
COc1cc(CC(O)C(=O)O)ccc1O (stereo not shown) — demethylation (cytochrome P450 (rat); substrate; NADPH-fortified rat liver microsomes): not detected
Brc1ccccc1-c1nnc(CSc2nnnn2-c2ccccc2)o1 — inhibition (CYP1A2; enzyme activity, inhibitor, fluorescence; insect cell microsomes; 10 µM): 46%
O=C(O)[C@@H]1C[C@@H](O)CN1C(=O)[C@@H]1CCCN1 — −ΔG (iron(III) ion; complex formation, from log β; aqueous 0.15 M NaCl; 37 °C, MAH−1 complex species): 66.6 kJ/mol
C=CC(=O)Nc1cc(Nc2nccc(-c3cn(C)c4ccccc34)n2)c(OCC(F)(F)F)nc1N(C)CCN(C)C — activity vs control (CYP1A2; enzyme activity, inhibitor; human, liver microsomes; 0.33 µM): 74.1%
CC(C)C[C@H](NC(=O)CNC(=O)[C@H](CC(C)C)NC(=O)[C@@H]1CCCN1C(=O)CNC(=O)[C@H](Cc1ccccc1)NC(=O)[C@H](Cc1ccccc1)NC(=O)OCC1c2ccccc2-c2ccccc21)C(=O)N[C@@H](CCCNC(=N)N)C(=O)N[C@@H](CO)C(=O)N[C@@H](CCCCN)C(=O)O — remaining substrate (MMP-9; substrate, HPLC; 500 µM, 72 h, pH 7.5, 37 °C, with: 10 U MMP-9): 68%
CC(=O)N[C@@H](CCCCN)C(=O)N[C@@H](CO)C(=O)N[C@@H](CC(C)C)C(=O)N[C@@H](CO)C(=O)N[C@@H](CC(C)C)C(=O)N[C@@H](CO)C(=O)N[C@@H](CC(C)C)C(=O)N[C@@H](CCCNC(=N)N)C(=O)NCC(=O)N[C@@H](CO)C(=O)N[C@@H](CC(C)C)C(=O)N[C@@H](CO)C(=O)N[C@@H](CC(C)C)C(=O)N[C@@H](CO)C(=O)N[C@@H](CC(C)C)C(=O)N[C@@H](CCCCN)C(N)=O — gel weight loss (Trypsin (Sus scrofa, UniProt P00761); 10 mg/mL, 2 weeks, 37 °C, with: Trypsin 0.05% with EDTA): 75%
COc1cc(-c2nc3ccccc3s2)cc(CN(C)Cc2ccccn2)c1O — pZn (Zn2+; 50 µM, pH 7.4, metal to ligand 1:1): 7.3
COc1ccc2cc(NC(=O)c3cc(-c4ccncc4)nc4ccccc34)ccc2c1 — koff fast phase (Cytochrome P450 3A4 (CYP3A4, Homo sapiens, UniProt P08684, S18F); binding, surface plasmon resonance; 10 °C): 0.03 s⁻¹ and 0.034 s⁻¹

Repeated from above:
O=C(O)c1cc(Br)c(O)c(Br)c1 — Ki (Cytochrome P450 2E1 (CYP2E1, Homo sapiens, UniProt P05181); p-nitrophenol hydroxylation, noncompetitive inhibitor, calculated from IC50; baculosomes): 1 µM
COc1cc(CC(O)C(=O)O)ccc1O (stereo not shown) — demethylation (cytochrome P450 (rat); substrate; NADPH-fortified rat liver microsomes): not detected
Brc1ccccc1-c1nnc(CSc2nnnn2-c2ccccc2)o1 — inhibition (CYP1A2; enzyme activity, inhibitor, fluorescence; insect cell microsomes; 10 µM): 46%
